Assay results from different studies.
Each line is one published result; not all experiments were run side by side.
C3AR1: C3a anaphylatoxin chemotactic receptor (C3AR1, Homo sapiens, UniProt Q16581)
Sequence of UniProt Q16581 (whole entry, looked up): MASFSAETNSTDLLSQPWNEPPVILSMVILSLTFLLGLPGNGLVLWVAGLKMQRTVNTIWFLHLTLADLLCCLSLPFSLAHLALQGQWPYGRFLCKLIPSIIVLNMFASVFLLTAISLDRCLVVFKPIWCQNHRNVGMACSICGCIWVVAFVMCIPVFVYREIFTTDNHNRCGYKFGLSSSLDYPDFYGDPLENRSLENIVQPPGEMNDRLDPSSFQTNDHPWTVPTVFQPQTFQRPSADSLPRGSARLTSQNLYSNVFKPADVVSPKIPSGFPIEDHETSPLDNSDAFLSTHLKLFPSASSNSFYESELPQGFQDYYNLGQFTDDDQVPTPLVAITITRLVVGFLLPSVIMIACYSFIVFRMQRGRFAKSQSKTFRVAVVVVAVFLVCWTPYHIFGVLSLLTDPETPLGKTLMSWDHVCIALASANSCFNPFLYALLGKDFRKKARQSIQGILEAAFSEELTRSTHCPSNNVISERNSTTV
CHRM1: Muscarinic acetylcholine receptor M1 (CHRM1, Homo sapiens, UniProt P11229)
Sequence of UniProt P11229 (whole entry, looked up): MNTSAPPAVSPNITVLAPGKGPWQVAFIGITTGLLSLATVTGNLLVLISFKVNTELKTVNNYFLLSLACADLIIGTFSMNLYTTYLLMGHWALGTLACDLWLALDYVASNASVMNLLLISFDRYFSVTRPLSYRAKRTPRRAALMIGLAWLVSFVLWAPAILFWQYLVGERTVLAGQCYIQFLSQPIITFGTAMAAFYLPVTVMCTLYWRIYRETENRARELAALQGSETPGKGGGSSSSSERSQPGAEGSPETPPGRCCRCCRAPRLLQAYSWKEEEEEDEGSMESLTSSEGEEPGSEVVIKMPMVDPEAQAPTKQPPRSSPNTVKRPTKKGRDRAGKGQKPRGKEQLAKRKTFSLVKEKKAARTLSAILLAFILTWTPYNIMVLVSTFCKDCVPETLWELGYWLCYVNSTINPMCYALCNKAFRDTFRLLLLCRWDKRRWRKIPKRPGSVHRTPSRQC
Sequence of UniProt Q9Y478 (whole entry, unmodified, looked up): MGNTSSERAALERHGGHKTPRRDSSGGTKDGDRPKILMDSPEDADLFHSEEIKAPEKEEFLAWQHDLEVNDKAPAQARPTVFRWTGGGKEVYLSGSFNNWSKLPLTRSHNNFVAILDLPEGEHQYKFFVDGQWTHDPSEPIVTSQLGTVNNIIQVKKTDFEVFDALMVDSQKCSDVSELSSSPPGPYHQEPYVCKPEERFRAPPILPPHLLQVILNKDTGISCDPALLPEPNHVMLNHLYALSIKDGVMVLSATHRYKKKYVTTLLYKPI
Sequence of UniProt P20309 (whole entry, looked up): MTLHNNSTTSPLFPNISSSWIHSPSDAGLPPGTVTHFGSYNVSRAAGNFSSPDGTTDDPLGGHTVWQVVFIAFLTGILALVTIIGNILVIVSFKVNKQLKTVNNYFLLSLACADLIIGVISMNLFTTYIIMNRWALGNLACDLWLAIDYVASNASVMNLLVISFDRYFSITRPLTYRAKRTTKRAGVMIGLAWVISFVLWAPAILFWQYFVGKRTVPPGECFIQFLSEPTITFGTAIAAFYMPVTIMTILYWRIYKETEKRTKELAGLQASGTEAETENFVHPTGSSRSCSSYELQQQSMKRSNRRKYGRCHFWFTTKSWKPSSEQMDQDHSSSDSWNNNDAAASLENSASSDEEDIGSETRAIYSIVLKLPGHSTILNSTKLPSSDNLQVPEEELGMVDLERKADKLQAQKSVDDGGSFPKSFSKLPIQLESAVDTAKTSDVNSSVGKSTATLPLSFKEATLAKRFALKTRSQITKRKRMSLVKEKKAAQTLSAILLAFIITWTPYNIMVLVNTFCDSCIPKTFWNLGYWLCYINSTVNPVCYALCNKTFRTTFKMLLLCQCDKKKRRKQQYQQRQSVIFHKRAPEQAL
Sequence of UniProt P54619 (whole entry, unmodified, looked up): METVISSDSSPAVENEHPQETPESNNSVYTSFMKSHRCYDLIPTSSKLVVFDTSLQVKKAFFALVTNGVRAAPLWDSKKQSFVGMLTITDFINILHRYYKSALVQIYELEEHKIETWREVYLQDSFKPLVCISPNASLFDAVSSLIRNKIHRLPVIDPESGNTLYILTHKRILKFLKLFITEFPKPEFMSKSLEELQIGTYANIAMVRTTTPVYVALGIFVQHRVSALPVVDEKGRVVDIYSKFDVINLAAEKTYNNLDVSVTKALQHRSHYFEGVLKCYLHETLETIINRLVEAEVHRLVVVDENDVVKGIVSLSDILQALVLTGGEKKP
Sequence of UniProt Q13131 (whole entry, unmodified, looked up): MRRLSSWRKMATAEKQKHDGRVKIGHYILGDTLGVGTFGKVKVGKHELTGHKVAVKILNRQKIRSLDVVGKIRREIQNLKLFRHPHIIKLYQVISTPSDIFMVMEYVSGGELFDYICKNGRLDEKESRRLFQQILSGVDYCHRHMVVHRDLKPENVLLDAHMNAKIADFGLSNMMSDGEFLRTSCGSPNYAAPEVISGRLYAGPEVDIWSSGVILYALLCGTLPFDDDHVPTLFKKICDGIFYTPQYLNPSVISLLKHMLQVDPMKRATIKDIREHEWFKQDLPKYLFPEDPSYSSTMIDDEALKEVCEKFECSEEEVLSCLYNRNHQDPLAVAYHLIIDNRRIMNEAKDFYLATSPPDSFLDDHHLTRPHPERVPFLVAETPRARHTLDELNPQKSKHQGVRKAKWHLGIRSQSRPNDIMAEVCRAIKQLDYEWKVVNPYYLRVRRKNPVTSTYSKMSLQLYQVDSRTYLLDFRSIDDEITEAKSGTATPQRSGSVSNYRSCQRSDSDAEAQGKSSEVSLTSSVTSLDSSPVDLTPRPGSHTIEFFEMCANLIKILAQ
Sequence of UniProt Q8WUI4 (whole entry, looked up): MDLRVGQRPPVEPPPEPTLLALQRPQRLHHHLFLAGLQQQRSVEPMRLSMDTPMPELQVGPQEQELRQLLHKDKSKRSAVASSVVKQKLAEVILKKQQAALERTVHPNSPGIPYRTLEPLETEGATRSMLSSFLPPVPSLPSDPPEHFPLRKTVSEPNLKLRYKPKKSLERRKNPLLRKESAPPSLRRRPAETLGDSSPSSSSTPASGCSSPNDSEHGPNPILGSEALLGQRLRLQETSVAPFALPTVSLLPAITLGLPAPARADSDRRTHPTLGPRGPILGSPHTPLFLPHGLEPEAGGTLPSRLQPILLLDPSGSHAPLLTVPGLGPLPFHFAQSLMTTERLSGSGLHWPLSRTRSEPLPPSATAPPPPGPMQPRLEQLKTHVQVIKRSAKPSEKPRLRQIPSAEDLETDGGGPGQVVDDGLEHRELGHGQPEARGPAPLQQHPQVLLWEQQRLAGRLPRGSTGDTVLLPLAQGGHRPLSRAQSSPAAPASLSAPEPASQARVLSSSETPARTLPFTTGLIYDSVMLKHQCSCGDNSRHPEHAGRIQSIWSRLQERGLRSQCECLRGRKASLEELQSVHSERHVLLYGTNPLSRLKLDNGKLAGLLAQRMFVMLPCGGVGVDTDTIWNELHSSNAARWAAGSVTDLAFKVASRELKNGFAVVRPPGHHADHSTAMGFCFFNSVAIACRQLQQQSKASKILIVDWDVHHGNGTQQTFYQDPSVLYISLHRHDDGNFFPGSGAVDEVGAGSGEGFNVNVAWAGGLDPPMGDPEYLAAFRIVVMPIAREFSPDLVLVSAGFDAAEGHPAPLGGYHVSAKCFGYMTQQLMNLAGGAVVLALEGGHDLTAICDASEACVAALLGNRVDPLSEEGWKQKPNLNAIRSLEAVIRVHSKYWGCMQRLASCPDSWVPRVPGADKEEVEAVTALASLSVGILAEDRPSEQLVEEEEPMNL
Sequence of UniProt Q01726 (whole entry, unmodified, looked up): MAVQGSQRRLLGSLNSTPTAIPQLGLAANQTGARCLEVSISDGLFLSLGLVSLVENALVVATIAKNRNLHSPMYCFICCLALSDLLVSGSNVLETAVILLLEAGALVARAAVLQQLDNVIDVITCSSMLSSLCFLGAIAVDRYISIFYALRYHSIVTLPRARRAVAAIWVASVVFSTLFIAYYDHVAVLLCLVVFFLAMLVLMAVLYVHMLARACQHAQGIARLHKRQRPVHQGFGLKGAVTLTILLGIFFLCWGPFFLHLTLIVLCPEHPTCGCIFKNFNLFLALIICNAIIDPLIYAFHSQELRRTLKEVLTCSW
Sequence of UniProt P09917 (whole entry, looked up): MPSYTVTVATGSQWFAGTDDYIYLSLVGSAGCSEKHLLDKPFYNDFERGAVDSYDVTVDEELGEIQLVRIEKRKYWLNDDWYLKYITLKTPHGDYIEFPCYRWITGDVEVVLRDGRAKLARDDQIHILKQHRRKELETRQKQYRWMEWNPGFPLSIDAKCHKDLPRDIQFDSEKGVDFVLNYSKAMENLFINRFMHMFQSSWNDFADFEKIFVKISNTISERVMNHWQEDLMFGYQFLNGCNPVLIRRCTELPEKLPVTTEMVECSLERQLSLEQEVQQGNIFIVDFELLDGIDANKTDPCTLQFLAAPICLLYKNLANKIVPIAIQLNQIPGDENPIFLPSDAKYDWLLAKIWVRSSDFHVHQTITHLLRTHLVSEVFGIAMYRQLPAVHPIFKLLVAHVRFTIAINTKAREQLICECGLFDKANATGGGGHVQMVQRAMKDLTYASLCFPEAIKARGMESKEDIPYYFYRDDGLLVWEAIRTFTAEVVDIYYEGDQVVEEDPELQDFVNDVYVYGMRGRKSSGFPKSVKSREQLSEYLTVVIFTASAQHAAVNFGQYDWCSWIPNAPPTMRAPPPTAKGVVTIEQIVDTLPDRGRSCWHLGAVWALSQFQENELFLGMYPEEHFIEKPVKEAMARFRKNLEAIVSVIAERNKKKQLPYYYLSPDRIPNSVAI
Sequence of UniProt P21462 (whole entry, looked up): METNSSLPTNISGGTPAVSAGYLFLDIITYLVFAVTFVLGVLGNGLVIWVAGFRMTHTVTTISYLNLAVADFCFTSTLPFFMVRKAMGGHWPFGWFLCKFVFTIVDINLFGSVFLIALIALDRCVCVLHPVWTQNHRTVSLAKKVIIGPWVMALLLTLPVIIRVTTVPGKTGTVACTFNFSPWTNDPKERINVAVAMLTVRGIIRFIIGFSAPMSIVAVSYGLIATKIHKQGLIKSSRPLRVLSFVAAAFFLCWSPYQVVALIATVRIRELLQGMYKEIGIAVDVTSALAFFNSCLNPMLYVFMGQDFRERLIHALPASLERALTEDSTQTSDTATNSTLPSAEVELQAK

SMILES	target	assay	test system	conditions	endpoint	value
CC(C)C[C@H](NC(=O)CNC(=O)[C@H](CC(C)C)NC(=O)[C@H](CCCCN)NC(=O)[C@H](CO)NC(=O)[C@H](C)NC(=O)[C@H](CCCN=C(N)N)NC(=O)[C@H](Cc1ccc(O)cc1)NC(=O)[C@H](CCCCN)NC(=O)[C@H](CCCCN)NC(=O)CNC(=O)[C@H](Cc1c[nH]c2ccccc12)NC(=O)[C@@H](N)Cc1c[nH]c2ccccc12)C(=O)N[C@@H](C)C(=O)N[C@@H](CCCN=C(N)N)C(=O)O	C3AR1	cAMP, agonist, luciferase	–	–	EC50	~90 nM
CCCCCCOc1ccc(C(=O)OCCN2CC=CCC2)cc1	CHRM3 (Homo sapiens, UniProt P20309)	inositol phosphate accumulation, antagonist, Schild analysis	CHO	with: carbachol	Kb	4070 nM
CC(C)C[C@H](NC(=O)CNC(=O)[C@H](CC(C)C)NC(=O)[C@H](CCCCN)NC(=O)[C@H](CO)NC(=O)[C@H](C)NC(=O)[C@H](CCCN=C(N)N)NC(=O)[C@H](Cc1ccc(O)cc1)NC(=O)[C@H](CCCCN)NC(=O)[C@H](CCCCN)NC(=O)CNC(=O)[C@H](Cc1c[nH]c2ccccc12)NC(=O)[C@@H](N)Cc1c[nH]c2ccccc12)C(=O)N[C@@H](C)C(=O)N[C@@H](CCCN=C(N)N)C(=O)O	C3AR1	G protein activation, agonist, BRET	–	–	EC50	8.3 nM
CN1CCN(CC(=O)N2N=C3/C(=C/c4ccccc4)CCCC3C2c2ccccc2)CC1 (mixture of isomers)	ALOX15 (Homo sapiens, UniProt P16050)	enzyme activity, activator	–	pH 7.5, 0.01% Triton X-100, with: arachidonic acid 10 µM	AC50	7800 nM
O=C1CCC(N2C(=O)c3ccc(N4CCC(C(=O)N5CCC(CCN6CCC(CNC(=O)c7cccc(-c8noc(C(F)(F)F)n8)c7)(c7nc(-c8ccccc8)cs7)CC6)CC5)CC4)cc3C2=O)C(=O)N1 (centres unmarked)	HDAC7 (Homo sapiens, UniProt Q8WUI4)	degrader, cell-based	–	–	DC50	25.1 nM
CCCCOc1ccc(C(=O)OCC[N+]2(C)CC=CCC2)cc1 (centres unmarked)	CHRM1	inositol phosphate accumulation, antagonist, Schild analysis	CHO	with: carbachol	Kb	38.9 nM
CSCC[C@H](NC(=O)[C@H](CCCNC(=N)N)NC(=O)[C@H](CCCCN)NC(=O)[C@@H](N)Cc1c[nH]c2ccccc12)C(=O)N[C@H](C(=O)N[C@H](CCSC)C(N)=O)C(C)C	FPR1 (Homo sapiens, UniProt P21462)	binding, competitor	U-937	4 °C, with: 5 nM WK(FL)YMVm	EC50	> 6700 nM
CC(C)C[C@@H]1NC(=O)[C@H](CCCNC(=N)N)NC(=O)[C@H](C(C)C)NC(=O)[C@H](Cc2c[nH]cn2)NC(=O)[C@H](Cc2c[nH]cn2)NC(=O)CNC(=O)[C@H](CCCCN)NC(=O)[C@H](CC(C)C)NC(=O)[C@H](CC(N)=O)NC(=O)[C@H]([C@@H](C)O)NC(=O)[C@H](CO)NC(=O)[C@H](CC(N)=O)NC(=O)[C@@H]2CCCN2C(=O)[C@H](CO)NC(=O)[C@@H]2CCCN2C(=O)[C@H](C(C)C)NC(=O)[C@H](CCCNC(=N)N)NC(=O)[C@H](Cc2c[nH]cn2)NC(=O)[C@@H]2CSSC[C@H](NC1=O)C(=O)N[C@@H](CCCCN)C(=O)N1CCC[C@H]1C(=O)N[C@H](C(=O)N[C@@H](CCCCN)C(=O)N[C@@H](CC(C)C)C(=O)N[C@@H](CCC(=O)O)C(=O)N1CCC[C@H]1C(=O)N[C@@H](CCC(=O)O)C(=O)N1CCC[C@H]1C(=O)N[C@@H](CCCNC(=N)N)C(=O)N[C@@H](CC(C)C)C(=O)N[C@@H](Cc1c[nH]c3ccccc13)C(=O)N[C@H](C(=O)N[C@H](C(=O)N1CCC[C@H]1C(=O)NCC(=O)N[C@@H](C)C(=O)N[C@@H](CC(C)C)C(=O)N1CCC[C@H]1C(=O)N[C@@H](CCC(N)=O)C(=O)N[C@H](C(=O)O)C(C)C)C(C)C)C(C)C)CSSC[C@H](NC(=O)[C@H](CC(C)C)NC(=O)[C@H](CCCNC(=N)N)NC(=O)[C@@H](NC(=O)[C@H](CCCNC(=N)N)NC(=O)[C@H](CCCNC(=N)N)NC(=O)CNC(=O)[C@H](CO)NC(=O)[C@H](Cc1c[nH]c3ccccc13)NC(=O)[C@H](C)NC(=O)[C@H](CCCCN)NC(=O)[C@H](C)NC(=O)[C@@H]1CCCN1C(=O)[C@H](CCCNC(=N)N)NC(=O)[C@H](CCCNC(=N)N)NC(=O)[C@@H](N)CCCCN)[C@@H](C)O)C(=O)N2	G-protein coupled receptor 15, with Gi2 (Homo sapiens, UniProt P49685)	Gi2 activation, agonist, BRET	HEK293A transfected GPR15	–	EC50	72.4 nM
CCNC(=O)[C@H]1O[C@@H](n2cnc3c(NCCOCCOCCNC(=O)CCCCCNC(=O)COc4ccc(/C=C/C5=[N+]6C(=Cc7ccc(-c8cccs8)n7[B-]6(F)F)C=C5)cc4)ncnc32)[C@H](O)[C@@H]1O	ADORA1 (Homo sapiens, UniProt P30542)	CRE-SPAP reporter gene, agonist	CHO-A1	Gs enhancement, with: forskolin, pertussis toxin 100 ng/mL overnight	EC50	1070 nM
CCCC[C@H](NC(=O)[C@H](CO)NC(=O)[C@H](Cc1ccc(O)cc1)NC(=O)[C@H](CO)NC(C)=O)C(=O)N[C@@H](CCC(=O)O)C(=O)N[C@@H](Cc1c[nH]cn1)C(=O)N[C@H](Cc1ccccc1)C(=O)N[C@@H](CCCNC(=N)N)C(=O)N[C@@H](Cc1c[nH]c2ccccc12)C(=O)NCC(=O)N[C@@H](CCCCN)C(=O)N1CCC[C@H]1C(=O)N[C@H](C(=O)NCC(=O)N[C@@H](CCCCN)C(=O)N[C@@H](CCCCN)C(=O)N[C@@H](CCCNC(=N)N)C(N)=O)C(C)C	MC1R (Homo sapiens, UniProt Q01726, M128L)	cAMP, agonist	–	–	EC50	0.71 nM
COc1cc(O)ccc1CC[C@H](c1ccc(O)cc1)c1cc2c(c(C)c1O)O[C@H](c1ccc(O)cc1)CC2	ALOX5 (Homo sapiens, UniProt P09917)	5-LO product formation	human PMNL	with: A23187	IC50	1700 nM
Cc1ccc(Oc2nc3cc(-c4ccc5c(ccn5C)c4)c(Cl)cc3[nH]2)cc1C(=O)O	AMP-activated protein kinase (AMPK) alpha-1/beta-1/gamma-1, beta1 residues 185–270 (PRKAG1/PRKAA1/PRKAB1, Homo sapiens, UniProt P54619+Q13131+Q9Y478)	biolayer interferometry	–	AMPK complex ΔCBM	Kd	> 25000 nM
CC(C)C[C@H](NC(=O)[C@H](C)NC(=O)[C@H](CO)NC(=O)[C@@H]1CCCN1C(=O)[C@@H]1CCCN1C(=O)[C@H](CCC(N)=O)NC(=O)[C@H](CC(C)C)NC(=O)[C@@H](N)[C@@H](C)O)C(=O)N[C@@H](CCCNC(=N)N)C(=O)N[C@@H](CCCNC(=N)N)C(=O)N[C@@H](CCCNC(=N)N)C(=O)N[C@@H](Cc1c[nH]cn1)C(=O)N[C@@H](Cc1ccc(O)cc1)C(=O)N[C@@H](Cc1c[nH]cn1)C(=O)N[C@@H](Cc1c[nH]cn1)C(=O)N[C@@H](C)C(=O)N[C@@H](CC(C)C)C(=O)N1CCC[C@H]1C(=O)N1CCC[C@H]1C(=O)N[C@@H](CO)C(=O)N[C@@H](CCCNC(=N)N)C(=O)O	C3AR1	β-arrestin2 recruitment, agonist, BRET	–	60 min, 37 °C, with: GRK2 co-expression	EC50	3180 nM
CCCCCCOc1ccc(C(=O)OCC[N+]2(C)CC=CCC2)cc1 (centres unmarked)	CHRM1	inositol phosphate accumulation, antagonist, Schild analysis	CHO	with: carbachol	Kb	20.9 nM

Some of these lines once more:
SMILES	target	assay	test system	conditions	endpoint	value
CCCCOc1ccc(C(=O)OCC[N+]2(C)CC=CCC2)cc1 (centres unmarked)	CHRM1	inositol phosphate accumulation, antagonist, Schild analysis	CHO	with: carbachol	Kb	38.9 nM
